Measured values collected from several papers.
± gives the spread as reported.

CCCC[C@H](NC(=O)CNC(=O)CNC(=O)c1ccc(NN)nc1)C(=O)N[C@H]1CC(=O)NCCCC[C@@H](C(N)=O)NC(=O)[C@H](Cc2c[nH]c3ccccc23)NC(=O)[C@H](CCCNC(=N)N)NC(=O)[C@@H](Cc2ccccc2)NC(=O)[C@H](Cc2c[nH]cn2)NC1=O [technetium-99m labelled]  tissue uptake ratio (C57 mouse, B16/F1 melanoma-bearing; intravenous, 2 h; reference: tumour over lung): 34.5
N=C(N)NCCC[C@@H]1NC(=O)[C@H](CCCCNC(=O)CNC(=O)CNC(=O)CNC(=O)CC[C@H](NC(=O)CCOCCOCCOCCOCCNC(=O)CC[C@H](NC(=O)CN2CCN(CC(=O)O)CCN(CC(=O)O)CCN(CC(=O)O)CC2)C(=O)NCCOCCOCCOCCOCCC(=O)N[C@@H](CCC(=O)NCC(=O)NCC(=O)NCC(=O)NCCCC[C@@H]2NC(=O)[C@@H](Cc3ccccc3)NC(=O)[C@H](CC(=O)O)NC(=O)CNC(=O)[C@H](CCCNC(=N)N)NC2=O)C(=O)NCC(=O)NCC(=O)NCC(=O)NCCCC[C@@H]2NC(=O)[C@@H](Cc3ccccc3)NC(=O)[C@H](CC(=O)O)NC(=O)CNC(=O)[C@H](CCCNC(=N)N)NC2=O)C(=O)NCC(=O)NCC(=O)NCC(=O)NCCCC[C@@H]2NC(=O)[C@@H](Cc3ccccc3)NC(=O)[C@H](CC(=O)O)NC(=O)CNC(=O)[C@H](CCCNC(=N)N)NC2=O)NC(=O)[C@@H](Cc2ccccc2)NC(=O)[C@H](CC(=O)O)NC(=O)CNC1=O [indium-111 labelled]  tumour to bone ratio (female athymic nude mouse; intravenous, 72 h, U-87 MG glioma xenograft; reference: tumour over bone): 6.76 ± 2.74
CCCCCC(=O)N[C@H]1CSCc2cc(CSCCNC(=O)CCCCCNC(=O)CC[C@H](NC(=O)CCC(C(=O)O)N3CCN(CC(=O)O)CCN(CC(=O)O)CCN(CC(=O)O)CC3)C(=O)NCCCOc3ccc4nccc(C(=O)NCC(=O)N5CC(F)(F)C[C@H]5C#N)c4c3)cc(c2)CSC[C@@H](C(=O)O)NC(=O)[C@H](Cc2ccccc2)NC(=O)[C@H](CCC(N)=O)NC(=O)[C@H]([C@@H](C)O)NC(=O)[C@@H]2CCCN2C(=O)[C@@H]2CCCN2C1=O (stereo partly drawn)  logP (shake flask; PBS): -2.7
CCCC[C@H](NC(=O)CNC(=O)[C@H](CO)NC(=O)CNC(=O)c1ccc(NN)nc1)C(=O)N[C@H]1CC(=O)NCCCC[C@@H](C(N)=O)NC(=O)[C@H](Cc2c[nH]c3ccccc23)NC(=O)[C@H](CCCNC(=N)N)NC(=O)[C@@H](Cc2ccccc2)NC(=O)[C@H](Cc2c[nH]cn2)NC1=O [technetium-99m labelled]  uptake (C57 mouse, B16/F1 melanoma, muscle; intravenous, 2 h): 0.05 ± 0.02 %ID/g
N=C(N)NCCC[C@@H]1NC(=O)[C@H](CCCCNC(=O)CC[C@H](NC(=O)CCOCCOCCOCCOCCNC(=O)CC[C@H](NC(=O)CN2CCN(CC(=O)O)CCN(CC(=O)O)CCN(CC(=O)O)CC2)C(=O)NCCOCCOCCOCCOCCC(=O)N[C@@H](CCC(=O)NCCCC[C@@H]2NC(=O)[C@@H](Cc3ccccc3)NC(=O)[C@H](CC(=O)O)NC(=O)CNC(=O)[C@H](CCCNC(=N)N)NC2=O)C(=O)NCCCC[C@@H]2NC(=O)[C@@H](Cc3ccccc3)NC(=O)[C@H](CC(=O)O)NC(=O)CNC(=O)[C@H](CCCNC(=N)N)NC2=O)C(=O)NCCCC[C@@H]2NC(=O)[C@@H](Cc3ccccc3)NC(=O)[C@H](CC(=O)O)NC(=O)CNC(=O)[C@H](CCCNC(=N)N)NC2=O)NC(=O)[C@@H](Cc2ccccc2)NC(=O)[C@H](CC(=O)O)NC(=O)CNC1=O [indium-111 labelled]  tumour to tissue ratio (athymic nude mice, female, U-87 MG glioma xenograft, tumour and liver; intravenous, 0.5 h; reference: tumour over liver): 6.09 ± 2.81
CSCC[C@H](NC(=O)[C@H](CC(C)C)NC(=O)[C@H](Cc1c[nH]cn1)NC(=O)CNC(=O)[C@@H](NC(=O)[C@H](C)NC(=O)[C@H](Cc1c[nH]c2ccccc12)NC(=O)[C@H](CCC(N)=O)NC(=O)CCCCCNC(=O)CNC(=O)CNC(=O)CNC(=O)CSC(C)=O)C(C)C)C(N)=O [technetium-99m labelled]  tissue uptake (Swiss mouse, spleen; intravenous, 18.5 MBq, 5 min): 1.45 ± 0.24 %ID/g
CC(C)C[C@H](NC(=O)[C@@H]1CCCN1C(=O)[C@H](CCCCN)NC(=O)[C@@H](N)CO)C(=O)N1CCC[C@H]1C(=O)N[C@@H](CCC(=O)O)C(=O)N[C@H](C(=O)N[C@H](C(=O)N[C@@H](CC(=O)O)C(=O)N[C@@H](CCC(=O)O)C(=O)N[C@@H](Cc1ccc(O)cc1)C(=O)N[C@@H](Cc1cn(CCOCCOCCOCCNC(=O)CCc2ccc(O)c(CN(CCN(CC(=O)O)Cc3cc(CCC(=O)NCCCC[C@H](NC(=O)N[C@@H](CCC(=O)O)C(=O)O)C(=O)O)ccc3O)CC(=O)O)c2)nn1)C(=O)O)[C@@H](C)O)C(C)C [gallium-68 labelled]  standardised uptake value (NMRI nu/nu mouse, LNCaP tumour, tumour; 135.34 nmol/kg, low molar activity): 0.43 g/g
CSCC[C@H](NC(=O)[C@H](CC(C)C)NC(=O)[C@H](Cc1c[nH]cn1)NC(=O)CNC(=O)[C@@H](NC(=O)[C@H](C)NC(=O)[C@H](Cc1c[nH]c2ccccc12)NC(=O)[C@H](CCC(N)=O)NC(=O)CCCCNC(=O)CSCCSCCP(CO)CO)C(C)C)C(N)=O [technetium-99m labelled]  urinary excretion (female CF-1 mouse, urine; intravenous, dose not given, 24 h): 38%
Cc1ncsc1-c1ccc(CNC(=O)[C@@H]2C[C@@H](OC(=O)OCCSSCCn3cc(CCCC(=O)N[C@@H](Cc4ccc(O)cc4)C(=O)N[C@@H](CCCNC(=N)N)C(=O)N[C@@H](CCCNC(=N)N)C(=O)N[C@@H](CCCNC(=N)N)C(=O)N[C@@H](CCCNC(=N)N)C(=O)N[C@@H](CCCNC(=N)N)C(=O)N[C@@H](CCCNC(=N)N)C(=O)N[C@@H](CCCNC(=N)N)C(=O)N[C@@H](CCCNC(=N)N)C(=O)N[C@@H](CCCNC(=N)N)C(N)=O)nn3)CN2C(=O)[C@@H](NC(=O)COCCOCCOCCNC(=O)C[C@@H]2N=C(c3ccc(Cl)cc3)c3c(sc(C)c3C)-n3c(C)nnc32)C(C)(C)C)cc1  released payload (UHPLC; PBS; 100 nM, 1 h, 37 °C, added: 5 mM glutathione; reference: total peak area): 100%
N=C(N)NCCC[C@@H]1NC(=O)[C@H](CCCCNC(=O)CCOCCOCCOCCOCCNC(=O)CN2CCN(CC(=O)O)CCN(CC(=O)O)CCN(CC(=O)O)CC2)NC(=O)[C@@H](Cc2ccccc2)NC(=O)[C@H](CC(=O)O)NC(=O)CNC1=O [indium-111 labelled]  tumour to tissue ratio (athymic nude mice, female, U-87 MG glioma xenograft, tumour and lungs; intravenous, 1 h; reference: tumour over lungs): 2.54 ± 0.45
CCCC[C@H](NC(=O)CCCCCCCNC(=O)c1ccc(NN)nc1)C(=O)N[C@H]1CC(=O)NCCCC[C@@H](C(N)=O)NC(=O)[C@H](Cc2c[nH]c3ccccc23)NC(=O)[C@H](CCCNC(=N)N)NC(=O)[C@@H](Cc2ccccc2)NC(=O)[C@H](Cc2c[nH]cn2)NC1=O [technetium-99m labelled]  biodistribution (C57 mice, B16/F1 melanoma, intestines; concentration not given, 2 h, added: 12 mg L-lysine): 1.64 ± 0.4 %ID
C[C@@H](O)[C@H](NC(=O)[C@@H]1CSSC[C@H](NC(=O)[C@@H](Cc2ccccc2)NC(=O)CN2CCCN3CCN(CCCN(CP(=O)(O)O)CC3)CC2)C(=O)N[C@@H](Cc2ccc(O)cc2)C(=O)N[C@H](Cc2c[nH]c3ccccc23)C(=O)N[C@@H](CCCCN)C(=O)N[C@@H]([C@@H](C)O)C(=O)N1)C(=O)O [copper-64 labelled]  tissue uptake (male Lewis rat, pancreas; 0.74 MBq, 1 h): 10.2 ± 2.7 %ID/g
